Measured values gathered from unrelated publications.
Compare with care: the assays were run in different laboratories. “And” joins repeats or separate records; there may be more than shown. ± marks the error that the study gave.
folP: Dihydropteroate synthase (folP, Bacteria, UniProt P0AC13)
UniProt P0AC13, sequence (whole entry, looked up): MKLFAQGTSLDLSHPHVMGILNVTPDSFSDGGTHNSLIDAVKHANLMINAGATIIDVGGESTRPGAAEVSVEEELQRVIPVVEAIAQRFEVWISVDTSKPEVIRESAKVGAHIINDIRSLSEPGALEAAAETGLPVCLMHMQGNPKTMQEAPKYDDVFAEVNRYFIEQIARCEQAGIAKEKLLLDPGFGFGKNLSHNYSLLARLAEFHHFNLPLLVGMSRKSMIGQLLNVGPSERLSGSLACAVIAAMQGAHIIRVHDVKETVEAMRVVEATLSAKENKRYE
T1: RNA aptamer; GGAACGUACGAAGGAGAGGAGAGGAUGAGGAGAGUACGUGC
UniProt P45983, sequence (whole entry, looked up): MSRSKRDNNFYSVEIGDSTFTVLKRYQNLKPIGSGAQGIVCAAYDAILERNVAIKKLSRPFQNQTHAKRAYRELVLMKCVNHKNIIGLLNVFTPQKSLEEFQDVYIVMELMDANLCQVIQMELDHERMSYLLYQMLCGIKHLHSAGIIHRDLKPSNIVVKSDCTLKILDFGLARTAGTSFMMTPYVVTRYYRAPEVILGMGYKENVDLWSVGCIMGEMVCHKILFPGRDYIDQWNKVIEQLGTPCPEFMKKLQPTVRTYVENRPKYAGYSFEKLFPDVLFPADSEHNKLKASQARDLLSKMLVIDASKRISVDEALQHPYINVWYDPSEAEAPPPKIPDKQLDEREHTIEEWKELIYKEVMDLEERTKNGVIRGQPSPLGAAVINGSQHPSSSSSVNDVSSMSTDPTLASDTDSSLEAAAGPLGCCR
UniProt P33992, sequence (whole entry, looked up): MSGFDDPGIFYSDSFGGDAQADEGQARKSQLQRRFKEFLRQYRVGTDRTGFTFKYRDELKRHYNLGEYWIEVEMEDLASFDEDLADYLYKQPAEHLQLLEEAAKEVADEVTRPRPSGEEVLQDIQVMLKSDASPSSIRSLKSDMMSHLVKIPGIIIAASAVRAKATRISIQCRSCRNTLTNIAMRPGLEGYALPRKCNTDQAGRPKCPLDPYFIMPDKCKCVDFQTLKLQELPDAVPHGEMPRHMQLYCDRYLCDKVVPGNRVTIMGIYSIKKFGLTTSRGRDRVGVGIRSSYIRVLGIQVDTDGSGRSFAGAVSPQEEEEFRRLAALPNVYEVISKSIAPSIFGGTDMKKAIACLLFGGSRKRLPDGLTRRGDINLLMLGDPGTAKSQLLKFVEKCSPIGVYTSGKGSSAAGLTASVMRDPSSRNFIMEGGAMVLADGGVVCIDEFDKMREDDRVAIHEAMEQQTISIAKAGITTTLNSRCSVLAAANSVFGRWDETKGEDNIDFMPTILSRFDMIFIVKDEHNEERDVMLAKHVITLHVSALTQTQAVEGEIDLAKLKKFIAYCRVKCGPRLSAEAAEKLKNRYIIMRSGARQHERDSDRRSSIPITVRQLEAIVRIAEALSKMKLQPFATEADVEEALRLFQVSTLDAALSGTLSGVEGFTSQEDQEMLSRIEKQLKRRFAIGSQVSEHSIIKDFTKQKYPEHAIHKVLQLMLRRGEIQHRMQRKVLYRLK
UniProt O15151, sequence (whole entry, unmodified, looked up): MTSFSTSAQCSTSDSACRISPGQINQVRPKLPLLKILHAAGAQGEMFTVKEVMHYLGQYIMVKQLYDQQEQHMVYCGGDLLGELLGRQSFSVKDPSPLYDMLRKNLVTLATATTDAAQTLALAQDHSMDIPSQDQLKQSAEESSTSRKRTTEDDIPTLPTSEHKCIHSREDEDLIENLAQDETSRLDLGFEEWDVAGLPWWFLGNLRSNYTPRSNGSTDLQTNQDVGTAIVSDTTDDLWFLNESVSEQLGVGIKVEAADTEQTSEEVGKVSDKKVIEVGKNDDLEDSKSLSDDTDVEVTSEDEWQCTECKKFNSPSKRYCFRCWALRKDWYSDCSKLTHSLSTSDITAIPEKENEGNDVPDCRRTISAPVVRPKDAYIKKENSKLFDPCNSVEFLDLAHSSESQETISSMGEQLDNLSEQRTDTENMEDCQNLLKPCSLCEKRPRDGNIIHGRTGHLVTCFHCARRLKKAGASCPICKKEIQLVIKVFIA
UniProt Q13620, sequence (whole entry, looked up): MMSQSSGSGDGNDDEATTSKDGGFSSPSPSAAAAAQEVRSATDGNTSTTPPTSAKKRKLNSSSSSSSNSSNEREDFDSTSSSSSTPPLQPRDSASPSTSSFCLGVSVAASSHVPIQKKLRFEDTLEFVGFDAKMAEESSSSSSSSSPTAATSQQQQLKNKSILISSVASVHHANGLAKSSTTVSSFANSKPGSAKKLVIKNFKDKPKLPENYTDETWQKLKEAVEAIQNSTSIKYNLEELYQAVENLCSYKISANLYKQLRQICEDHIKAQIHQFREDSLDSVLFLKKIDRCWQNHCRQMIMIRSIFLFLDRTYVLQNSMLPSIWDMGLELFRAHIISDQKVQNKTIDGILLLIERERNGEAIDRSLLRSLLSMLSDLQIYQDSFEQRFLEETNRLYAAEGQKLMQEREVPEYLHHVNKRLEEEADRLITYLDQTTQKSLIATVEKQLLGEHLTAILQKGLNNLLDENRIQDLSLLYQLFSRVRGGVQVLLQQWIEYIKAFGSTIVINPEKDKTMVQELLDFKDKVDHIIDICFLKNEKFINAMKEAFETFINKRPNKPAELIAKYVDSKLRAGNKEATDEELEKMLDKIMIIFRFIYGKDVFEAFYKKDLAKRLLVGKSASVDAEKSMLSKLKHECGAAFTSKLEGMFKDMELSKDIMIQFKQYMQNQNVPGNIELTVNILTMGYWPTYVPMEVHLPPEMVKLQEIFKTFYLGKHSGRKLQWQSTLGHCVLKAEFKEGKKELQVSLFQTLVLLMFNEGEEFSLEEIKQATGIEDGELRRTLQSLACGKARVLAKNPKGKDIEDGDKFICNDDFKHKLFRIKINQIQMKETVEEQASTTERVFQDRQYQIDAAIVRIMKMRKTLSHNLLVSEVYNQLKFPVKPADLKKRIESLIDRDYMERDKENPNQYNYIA
UniProt Q14145, sequence (whole entry, looked up): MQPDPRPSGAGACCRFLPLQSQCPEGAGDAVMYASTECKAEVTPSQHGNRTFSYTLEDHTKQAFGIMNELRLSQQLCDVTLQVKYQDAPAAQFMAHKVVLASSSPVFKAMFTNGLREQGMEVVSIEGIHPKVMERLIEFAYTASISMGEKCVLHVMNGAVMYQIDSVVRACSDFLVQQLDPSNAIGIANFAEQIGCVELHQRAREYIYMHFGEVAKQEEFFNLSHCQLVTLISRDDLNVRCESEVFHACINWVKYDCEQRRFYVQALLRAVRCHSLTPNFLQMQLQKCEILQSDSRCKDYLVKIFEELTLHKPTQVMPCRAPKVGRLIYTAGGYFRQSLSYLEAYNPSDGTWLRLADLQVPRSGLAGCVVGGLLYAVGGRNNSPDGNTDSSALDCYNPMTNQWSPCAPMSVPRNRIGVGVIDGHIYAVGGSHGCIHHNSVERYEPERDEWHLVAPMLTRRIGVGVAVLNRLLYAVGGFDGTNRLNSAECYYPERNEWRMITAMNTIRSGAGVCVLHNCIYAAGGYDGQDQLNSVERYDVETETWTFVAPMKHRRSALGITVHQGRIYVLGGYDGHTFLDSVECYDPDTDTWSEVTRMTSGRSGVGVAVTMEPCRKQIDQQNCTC
UniProt P43220, sequence (whole entry, looked up): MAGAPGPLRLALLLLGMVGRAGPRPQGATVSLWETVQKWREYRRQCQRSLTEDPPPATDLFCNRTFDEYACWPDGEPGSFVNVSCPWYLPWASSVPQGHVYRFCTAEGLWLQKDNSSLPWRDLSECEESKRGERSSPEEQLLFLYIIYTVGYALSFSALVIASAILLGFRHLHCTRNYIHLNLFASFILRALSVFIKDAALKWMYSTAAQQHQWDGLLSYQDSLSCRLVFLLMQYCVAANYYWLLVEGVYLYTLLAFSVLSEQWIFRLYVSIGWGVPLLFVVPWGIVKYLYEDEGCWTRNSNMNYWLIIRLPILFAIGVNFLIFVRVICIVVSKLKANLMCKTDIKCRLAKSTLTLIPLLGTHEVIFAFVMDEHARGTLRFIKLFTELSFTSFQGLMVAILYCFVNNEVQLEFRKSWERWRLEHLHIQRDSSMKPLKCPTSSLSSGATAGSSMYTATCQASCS
UniProt P46089, sequence (whole entry, looked up): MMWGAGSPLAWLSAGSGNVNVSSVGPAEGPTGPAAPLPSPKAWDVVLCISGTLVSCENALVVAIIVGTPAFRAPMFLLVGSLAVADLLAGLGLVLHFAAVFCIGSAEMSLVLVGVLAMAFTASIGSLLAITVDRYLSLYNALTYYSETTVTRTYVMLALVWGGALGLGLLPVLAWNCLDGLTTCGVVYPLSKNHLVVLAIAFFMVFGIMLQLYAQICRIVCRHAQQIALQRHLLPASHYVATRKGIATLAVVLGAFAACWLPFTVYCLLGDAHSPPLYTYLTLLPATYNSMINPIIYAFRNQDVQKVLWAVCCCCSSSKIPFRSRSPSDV

Under “melting temperature shift”, Cn1nc(CNc2nnn[nH]2)c(=O)c2c(=O)[nH]c(N)nc21 is recorded as 15.4 °C (folP; CETSA HiBiT; Escherichia coli, cell lysate; concentration not given; baseline: DMSO).
COc1cc(C2C(NC(=O)c3ccc(NC(=O)OC(C)(C)C)cc3)(C(=O)O)C(c3ccc(OC(=O)c4cccs4)c(OC)c3)C2(NC(=O)c2ccc(NC(=O)OC(C)(C)C)cc2)C(=O)O)ccc1OC(=O)c1cccs1 (stereo not shown) gave an Emax of 99.3 ± 2.63% (GLP1R (Homo sapiens, UniProt P43220); cAMP accumulation, agonist; baseline: wild-type receptor response).
With CC(O)(c1cccc(F)c1)c1cn(C2OC(CO)C(O)C(O)C2O)nn1 (stereo not shown) the ΔTm was 1.2 °C (Protein Mdm4 (MDM4, Homo sapiens, UniProt O15151); thermal stability, DSF; 30 µM).
CC(C)Oc1cc(Cl)ccc1CNc1cc(-c2ccccc2)nc2ncnn12 — result for “dimer stability time”: ~24 h (G-protein coupled receptor 3, homodimer (GPR3, Homo sapiens, UniProt P46089); binding, size exclusion chromatography; detergent micelles; cpd-free buffer).
With Nc1nc2[nH]nc(CCC(=O)O)c(=O)c2c(=O)[nH]1 the melting temperature was 65.9 °C (folP; CETSA HiBiT; whole cells).
For C#CCOC(=O)[C@]1(C)C=C(C(=O)OC(C)(C)C)C(=O)CC1, “normalized kinase activity” read 0.838 and 0.938 and 0.855 (MAPK8 (Homo sapiens, UniProt P45983); enzyme activity, D-SENSOR; 14.81 µM, single replicate).
CC(=O)N[C@@H](CO)C(=O)N[C@@H](CC(C)C)C(=O)N[C@@H](CCC(=O)O)C(=O)N[C@@H](CCC(=O)O)C(=O)N1CCC[C@H]1C(=O)N[C@@H](Cc1c[nH]cn1)C(=O)N[C@@H](COP(=O)(O)O)C(=O)N1CCC[C@H]1C(=O)N[C@@H](CCC(=O)O)C(=O)N[C@H](C(=O)NCC(=O)N[C@@H](CCC(=O)O)C(=O)N[C@@H](CCCCN)C(=O)N[C@H](C(=O)N[C@H](C(=O)N[C@@H](C)C(=O)NCC(=O)N[C@@H](CCC(=O)O)C(=O)N[C@H](C(=O)N[C@@H](CC(N)=O)C(N)=O)C(C)C)C(C)C)C(C)C)[C@@H](C)O has a binding stoichiometry of 0.99 (Kelch-like ECH-associated protein 1, Kelch domain (KEAP1, Homo sapiens, UniProt Q14145); ITC; concentration not given).
CCCCCC(O)/C=C/C=O (stereo not shown): “probe labelling ratio” 0.63 (DNA replication licensing factor MCM5 (Homo sapiens, UniProt P33992); acylphosphate-ATP probe SILAC-ABPP, item: MCM5; ZAK-transfected HEK293T; 100 µM, together with: acylphosphate-ATP probe; baseline: DMSO over compound-treated).
For Cc1ccc2c(c1)N(C)C=CC2=Cc1sc2ccccc2[n+]1CC(=O)NCCOCCOCCOCCNC(=O)CCCC[C@@H]1SC[C@@H]2NC(=O)N[C@@H]21, the Kd was 8.7 nM (T1, RNA aptamer; fluorescence titration).
The SILAC ratio of Cc1cc(C)cc(COc2cc3c(cc2OCc2cc(C)cc(C)c2)C2CC(O)(Cc4cn(CCOCCOCCNC(=O)CCCCC5SCC6NC(=O)NC65)nn4)CC(C)N2CC3)c1 (stereo not shown) is reported as 1.61 (Cullin-4B (Homo sapiens, UniProt Q13620); biotinylated probe pull-down, item: CUL4B; 10 µM probe; baseline: heavy over light).
